Measured values pooled from the literature.
Each numbered part is a random draw from the data of one study; scales do not carry over between parts.
UniProt O14965, sequence (whole entry, looked up): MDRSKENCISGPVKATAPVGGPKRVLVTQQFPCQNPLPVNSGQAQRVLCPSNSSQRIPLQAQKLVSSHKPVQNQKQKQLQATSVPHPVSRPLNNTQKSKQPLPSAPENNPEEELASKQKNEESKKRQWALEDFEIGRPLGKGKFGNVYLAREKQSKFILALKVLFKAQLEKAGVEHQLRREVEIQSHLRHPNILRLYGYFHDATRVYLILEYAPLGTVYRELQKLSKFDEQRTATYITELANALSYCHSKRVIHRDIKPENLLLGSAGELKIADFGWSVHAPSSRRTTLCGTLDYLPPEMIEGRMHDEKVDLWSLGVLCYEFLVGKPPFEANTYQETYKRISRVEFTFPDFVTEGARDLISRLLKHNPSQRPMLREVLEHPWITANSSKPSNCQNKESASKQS
UniProt Q8NEV4, sequence (whole entry, looked up): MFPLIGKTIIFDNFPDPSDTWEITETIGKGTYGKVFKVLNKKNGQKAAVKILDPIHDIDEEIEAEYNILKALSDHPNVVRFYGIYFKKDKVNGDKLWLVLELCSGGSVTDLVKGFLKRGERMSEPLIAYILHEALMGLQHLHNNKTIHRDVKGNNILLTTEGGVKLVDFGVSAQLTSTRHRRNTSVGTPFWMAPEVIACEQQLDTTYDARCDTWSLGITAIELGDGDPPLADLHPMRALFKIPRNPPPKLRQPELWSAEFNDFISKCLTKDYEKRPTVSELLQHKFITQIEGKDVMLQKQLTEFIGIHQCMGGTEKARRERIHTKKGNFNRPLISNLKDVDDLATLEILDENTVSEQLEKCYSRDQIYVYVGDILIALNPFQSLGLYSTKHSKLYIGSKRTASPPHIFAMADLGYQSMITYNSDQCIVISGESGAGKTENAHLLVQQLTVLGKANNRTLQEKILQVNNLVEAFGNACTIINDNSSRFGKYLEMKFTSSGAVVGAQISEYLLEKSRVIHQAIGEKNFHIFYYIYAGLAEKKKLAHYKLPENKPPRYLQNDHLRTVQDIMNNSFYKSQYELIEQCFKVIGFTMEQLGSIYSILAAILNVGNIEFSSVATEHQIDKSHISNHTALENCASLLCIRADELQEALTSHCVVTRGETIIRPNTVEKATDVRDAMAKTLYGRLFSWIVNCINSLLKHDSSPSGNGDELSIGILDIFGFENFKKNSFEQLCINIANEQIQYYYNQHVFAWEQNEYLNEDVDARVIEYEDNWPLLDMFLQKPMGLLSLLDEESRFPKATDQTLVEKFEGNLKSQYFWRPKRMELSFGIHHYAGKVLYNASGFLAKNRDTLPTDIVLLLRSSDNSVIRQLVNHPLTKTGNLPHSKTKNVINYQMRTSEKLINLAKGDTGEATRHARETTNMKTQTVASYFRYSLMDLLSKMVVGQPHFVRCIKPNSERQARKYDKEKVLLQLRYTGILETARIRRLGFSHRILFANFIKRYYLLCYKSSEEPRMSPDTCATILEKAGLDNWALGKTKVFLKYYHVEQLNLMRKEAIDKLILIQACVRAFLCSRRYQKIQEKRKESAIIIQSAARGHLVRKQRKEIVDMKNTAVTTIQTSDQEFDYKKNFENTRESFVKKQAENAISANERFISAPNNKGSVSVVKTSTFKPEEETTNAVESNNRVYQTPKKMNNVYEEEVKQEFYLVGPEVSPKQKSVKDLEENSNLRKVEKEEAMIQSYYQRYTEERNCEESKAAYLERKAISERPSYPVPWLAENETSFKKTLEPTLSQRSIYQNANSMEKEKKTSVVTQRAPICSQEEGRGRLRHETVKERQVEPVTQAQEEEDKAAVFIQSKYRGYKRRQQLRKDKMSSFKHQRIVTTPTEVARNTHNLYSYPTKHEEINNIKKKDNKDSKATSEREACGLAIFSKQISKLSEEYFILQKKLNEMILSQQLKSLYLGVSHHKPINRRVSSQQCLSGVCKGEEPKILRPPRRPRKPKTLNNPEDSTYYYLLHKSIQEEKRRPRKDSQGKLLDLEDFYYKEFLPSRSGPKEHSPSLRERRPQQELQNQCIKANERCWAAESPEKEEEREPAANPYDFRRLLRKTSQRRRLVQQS
UniProt Q8WXR4, sequence (whole entry, looked up): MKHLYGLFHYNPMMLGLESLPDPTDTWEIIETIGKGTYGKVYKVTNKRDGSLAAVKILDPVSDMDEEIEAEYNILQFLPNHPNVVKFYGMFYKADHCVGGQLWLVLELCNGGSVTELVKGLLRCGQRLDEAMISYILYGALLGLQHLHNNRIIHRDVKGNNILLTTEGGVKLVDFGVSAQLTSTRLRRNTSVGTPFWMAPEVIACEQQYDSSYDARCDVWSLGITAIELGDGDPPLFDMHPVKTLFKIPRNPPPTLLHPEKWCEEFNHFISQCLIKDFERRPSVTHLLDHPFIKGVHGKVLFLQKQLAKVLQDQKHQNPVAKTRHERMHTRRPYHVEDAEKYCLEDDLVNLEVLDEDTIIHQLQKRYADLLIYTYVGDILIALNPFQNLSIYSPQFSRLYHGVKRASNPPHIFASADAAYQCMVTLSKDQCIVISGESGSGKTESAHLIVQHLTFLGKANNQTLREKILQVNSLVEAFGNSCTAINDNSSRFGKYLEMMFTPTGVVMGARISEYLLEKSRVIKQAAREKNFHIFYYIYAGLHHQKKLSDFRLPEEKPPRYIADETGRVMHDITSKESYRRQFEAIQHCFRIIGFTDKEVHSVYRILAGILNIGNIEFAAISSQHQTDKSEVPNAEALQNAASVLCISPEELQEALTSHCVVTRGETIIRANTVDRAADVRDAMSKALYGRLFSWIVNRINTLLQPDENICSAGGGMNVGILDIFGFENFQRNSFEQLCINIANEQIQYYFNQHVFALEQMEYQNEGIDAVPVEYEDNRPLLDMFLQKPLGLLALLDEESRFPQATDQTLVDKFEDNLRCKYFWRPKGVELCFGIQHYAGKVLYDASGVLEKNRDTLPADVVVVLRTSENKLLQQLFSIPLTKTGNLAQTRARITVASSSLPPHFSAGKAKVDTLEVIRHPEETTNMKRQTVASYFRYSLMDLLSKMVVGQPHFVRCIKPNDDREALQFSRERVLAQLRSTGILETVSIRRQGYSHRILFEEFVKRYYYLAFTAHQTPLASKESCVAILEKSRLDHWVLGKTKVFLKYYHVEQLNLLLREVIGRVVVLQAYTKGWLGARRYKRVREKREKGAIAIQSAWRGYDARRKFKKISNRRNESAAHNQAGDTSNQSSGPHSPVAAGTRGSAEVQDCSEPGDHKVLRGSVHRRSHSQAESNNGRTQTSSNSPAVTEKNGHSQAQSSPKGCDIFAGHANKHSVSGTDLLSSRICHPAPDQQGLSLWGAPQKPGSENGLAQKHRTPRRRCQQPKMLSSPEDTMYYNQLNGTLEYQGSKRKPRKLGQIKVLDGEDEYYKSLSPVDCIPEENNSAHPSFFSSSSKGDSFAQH
UniProt P27037, sequence (whole entry, looked up): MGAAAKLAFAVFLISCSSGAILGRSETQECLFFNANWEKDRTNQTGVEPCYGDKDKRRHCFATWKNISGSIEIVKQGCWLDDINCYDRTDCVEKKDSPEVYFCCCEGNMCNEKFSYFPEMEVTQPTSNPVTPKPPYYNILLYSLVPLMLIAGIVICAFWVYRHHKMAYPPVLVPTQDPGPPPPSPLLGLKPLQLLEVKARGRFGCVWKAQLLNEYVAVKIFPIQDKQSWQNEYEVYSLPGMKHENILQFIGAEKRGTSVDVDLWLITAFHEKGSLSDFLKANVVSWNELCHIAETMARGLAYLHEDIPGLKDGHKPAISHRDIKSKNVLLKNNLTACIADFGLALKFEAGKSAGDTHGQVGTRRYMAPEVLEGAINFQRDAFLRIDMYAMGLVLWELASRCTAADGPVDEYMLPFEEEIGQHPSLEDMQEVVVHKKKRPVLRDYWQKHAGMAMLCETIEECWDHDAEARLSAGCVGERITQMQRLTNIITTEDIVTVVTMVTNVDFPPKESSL
UniProt Q13554, sequence (whole entry, looked up): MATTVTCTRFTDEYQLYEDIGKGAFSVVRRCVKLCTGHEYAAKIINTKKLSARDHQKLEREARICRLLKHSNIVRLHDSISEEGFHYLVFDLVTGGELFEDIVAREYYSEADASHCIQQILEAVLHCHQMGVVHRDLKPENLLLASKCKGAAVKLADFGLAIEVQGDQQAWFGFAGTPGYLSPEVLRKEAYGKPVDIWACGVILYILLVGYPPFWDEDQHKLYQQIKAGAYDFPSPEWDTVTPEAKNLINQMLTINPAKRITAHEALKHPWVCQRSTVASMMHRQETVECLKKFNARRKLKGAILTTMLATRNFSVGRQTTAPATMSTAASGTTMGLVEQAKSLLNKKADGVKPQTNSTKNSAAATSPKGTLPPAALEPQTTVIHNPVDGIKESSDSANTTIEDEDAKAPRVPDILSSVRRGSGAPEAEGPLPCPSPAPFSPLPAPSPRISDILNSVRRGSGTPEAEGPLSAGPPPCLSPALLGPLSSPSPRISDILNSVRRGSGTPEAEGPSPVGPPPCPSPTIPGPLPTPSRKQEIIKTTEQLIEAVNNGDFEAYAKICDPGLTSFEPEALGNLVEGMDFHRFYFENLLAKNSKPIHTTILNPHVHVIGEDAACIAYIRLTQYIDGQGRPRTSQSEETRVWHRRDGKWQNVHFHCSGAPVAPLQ

Set 1
Host: mouse
Matrix: microsomes or S9
Concentration: 2 µM
Time: 0.5 h
`CCC(O)(c1ccccc1)c1cc(Cl)ccc1N` (centres unmarked) has a remaining compound of 22.4%.
With `O=C(Nc1ccc(Oc2cccnc2)nc1)c1c[nH]c2ccccc12` the remaining compound was 76.3%.
For `COc1ccc(OC)c(CNC(=O)C23CCCC=C2N(C2CCCC2)C(=O)CC3)c1` (centres unmarked), the remaining compound was 0.437%.
`O=C1Cc2cc(S(=O)(=O)N3CCN(C(c4ccccc4)c4ccccc4)CC3)cc3c2N1CCC3` has a remaining compound of 2.91%.

Set 2
Cell line: mouse MPNST tumor cells
Method: high-content immunofluorescence imaging
Item: nuclear SOX9
Concentration: 10 µM
Time: 12 h
Setting: mean of 2 replicates
Reference: DMSO control
Direction: higher = more nuclear SOX9
Under “nuclear SOX9 intensity”, `CCC(CC)Nc1cc(C)nc(Oc2c(C)cc(C)cc2C)c1C` is recorded as 119 % of DMSO.
For `C1CNCCN1`, “nuclear SOX9 intensity” read 103 % of DMSO.
`COc1ccccc1CNC(=O)CCn1c(=O)[nH]c2ccsc2c1=O` — result for “nuclear SOX9 intensity”: 97.3 % of DMSO.

Set 3
Organism: Sarcocystis neurona
Observed: parasite growth
Concentration: 10 µM
Time: 96 h
The inhibition of `NS(=O)(=O)c1cc2c(cc1Cl)NCNS2(=O)=O` is reported as -11.5%.
`C[C@](N)(Cc1ccc(O)c(O)c1)C(=O)O` gave an inhibition of -16.9%.
The inhibition of `COc1ccccc1OCC(O)COC(N)=O` (centres unmarked) is reported as -13.3%.
The inhibition of `CCN1CCN(c2cc3c(cc2F)c(=O)c(C(=O)O)cn3C2CC2)CC1` is reported as -0.9%.

Set 4
Target: Beta-1 adrenergic receptor (ADRB1, Homo sapiens, UniProt P08588)
UniProt P08588, sequence (whole entry, looked up): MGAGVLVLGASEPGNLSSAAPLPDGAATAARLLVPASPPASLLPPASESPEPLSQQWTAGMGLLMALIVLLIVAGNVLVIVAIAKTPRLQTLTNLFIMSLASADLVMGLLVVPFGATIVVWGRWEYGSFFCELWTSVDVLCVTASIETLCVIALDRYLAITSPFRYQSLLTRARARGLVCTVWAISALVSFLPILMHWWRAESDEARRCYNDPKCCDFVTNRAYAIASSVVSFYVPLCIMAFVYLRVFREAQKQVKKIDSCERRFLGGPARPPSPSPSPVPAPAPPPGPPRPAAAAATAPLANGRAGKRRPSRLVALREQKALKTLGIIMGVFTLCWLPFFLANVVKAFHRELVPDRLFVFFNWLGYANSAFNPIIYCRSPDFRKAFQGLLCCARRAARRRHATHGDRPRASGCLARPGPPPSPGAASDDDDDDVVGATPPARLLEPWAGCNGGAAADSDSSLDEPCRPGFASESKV
Mode: antagonist
`O=C(c1cc(-c2cccnc2)nc2ccccc12)N1CCCC2(CCOC2)C1` (centres unmarked) has an IC50 of ≥ 100 µM.
The IC50 of `CN(C)CCN(C)C(=O)c1ccc(NC(=O)Nc2ccc(-c3nc(N4CCOCC4)c4ccn(CC(F)(F)F)c4n3)cc2)cc1` is reported as ≥ 100 µM.
`COc1ccccc1N1CCN(c2ncccc2CNC(=O)C2COC(=O)N2)CC1` (centres unmarked) gave an IC50 of ≥ 100 µM.

Set 5
Target: Histone acetyltransferase KAT6A, winged helix 1, GST fusion (KAT6A, Homo sapiens, UniProt Q92794, residues 1-85)
Method: protein binding microarray
Molecule type: double-stranded DNA, one strand shown
Matrix: in vitro
Concentration: not given
Setting: 8-mer, flanks averaged, mean of 2 arrays, mostly near background
Reference: not given
Direction: higher = stronger binding
Residues (chain): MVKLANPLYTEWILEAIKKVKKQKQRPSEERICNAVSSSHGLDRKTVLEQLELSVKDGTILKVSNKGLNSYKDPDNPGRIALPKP
`CTCGTGCA` has an E-score of -0.0452.
`CGGTCAGA` gave an E-score of 0.0624.
The E-score of `ACCGGCAC` is reported as 0.283.
`AACAAAGA` gave an E-score of -0.247.
The E-score of `CCTGACCA` is reported as -0.211.
`CTCGACTC` gave an E-score of -0.134.
`ACGTGGGG` has an E-score of -0.192.
`CGAGCTGA` gave an E-score of -0.119.

Set 6
Structure (SMILES): CC(=O)N1CCC(c2ccc(C(=O)NC(=N)N)cc2C(F)(F)F)CC1
Method: competition with immobilised ligand
Concentration: 1 µM
PRKG2 (Homo sapiens, UniProt Q13237); cell-free assay — remaining binding: 100%.
It gave 93% for remaining binding (EGFR (Homo sapiens, UniProt P00533, del747-752/P753S); cell-free assay).
It gave 100% for remaining binding (Myosin-IIIa (MYO3A, Homo sapiens, UniProt Q8NEV4); binding).
CAMK2B (Homo sapiens, UniProt Q13554); cell-free assay — remaining binding: 100%.
It gave 100% for remaining binding (ACVR2A (Homo sapiens, UniProt P27037); cell-free assay).
It gave 91% for remaining binding (FLT3 (Homo sapiens, UniProt P36888, ITD); cell-free assay).
It gave 100% for remaining binding (NEK7 (Homo sapiens, UniProt Q8TDX7); cell-free assay).
The remaining binding was 100% (EGFR (Homo sapiens, UniProt P00533, A750P/del747-749); cell-free assay).
It gave 100% for remaining binding (Myosin-IIIb (MYO3B, Homo sapiens, UniProt Q8WXR4); binding).
It gave 100% for remaining binding (GAK (Homo sapiens, UniProt O14976); cell-free assay).
The remaining binding was 100% (NEK4 (Homo sapiens, UniProt P51957); cell-free assay).
The remaining binding was 100% (PKN2 (Homo sapiens, UniProt Q16513); cell-free assay).
It gave 100% for remaining binding (Ribosomal protein S6 kinase alpha-3, C-terminal kinase domain (RPS6KA3, Homo sapiens, UniProt P51812); cell-free assay).
IKBKE (Homo sapiens, UniProt Q14164); cell-free assay — remaining binding: 70%.
CAMK4 (Homo sapiens, UniProt Q16566); cell-free assay — remaining binding: 93%.
It gave 100% for remaining binding (BLK (Homo sapiens, UniProt P51451); cell-free assay).
Aurora kinase A (AURKA, Homo sapiens, UniProt O14965); cell-free assay — remaining binding: 87%.
CLK2 (Homo sapiens, UniProt P49760); cell-free assay — remaining binding: 100%.

Single results of other studies
Under “patients with treatment-related adverse events”, `CC(C)n1cnc(-c2ccc(F)cc2)c1-c1ncc(C(=O)Nc2ccc(N3CCN(C)CC3)cc2)[nH]1` is recorded as 72.7% (phase 2a clinical trial; patients with idiopathic pulmonary fibrosis; 60 mg once daily, together with: standard of care).

Some of these lines once more (set 6):
PRKG2 (Homo sapiens, UniProt Q13237); cell-free assay — remaining binding: 100%.
It gave 100% for remaining binding (ACVR2A (Homo sapiens, UniProt P27037); cell-free assay).
It gave 100% for remaining binding (Myosin-IIIa (MYO3A, Homo sapiens, UniProt Q8NEV4); binding).
The remaining binding was 100% (EGFR (Homo sapiens, UniProt P00533, A750P/del747-749); cell-free assay).
It gave 100% for remaining binding (NEK7 (Homo sapiens, UniProt Q8TDX7); cell-free assay).
